# Published values from different studies.
# Each line is one published result; not all experiments were run side by side. Values joined by “and” are separate records of one study, mostly repeats; a detail may differ. Numbers after ± are the reported error.
# B1: cytidine deaminase; sequence looked up; chain MAQKRPACTLKPECVQQLLVCSQEAKKSAYCPYSHFPVGAALLTQEGRIFKGCNIENACYPLGICAERTAIQKAVSEGYKDFRAIAIASDMQDDFISPCGACRQVMREFGTNWPVYMTKPDGTYIVMTVQELLPSSFGPEDLQKTQ
# B2: clathrin light chain A; sequence looked up; chain MAELDPFGAPAGAPGGPALGNGVAGAGEEDPAAAFLAQQESEIAGIENDEAFAILDGGAPGPQPHGEPPGGPDAVDGVMNGEYYQESNGPTDSYAAISQVDRLQSEPESIRKWREEQMERLEALDANSRKQEAEWKEKAIKELEEWYARQDEQLQKTKANNRVADEAFYKQPFADVIGYVTNINHPCYSLEQAAEEAFVNDIDESSPGTEWERVARLCDFNPKSSKQAKDVSRMRSVLISLKQAPLVH
# B3: CCT2; sequence looked up; chain ASLSLAPVNIFKAGADEERAETARLTSFIGAIAIGDLVKSTLGPKGMDKILLSSGRDASLMVTNDGATILKNIGVDNPAAKVLVDMSRVQDDEVGDGTTSVTVLAAELLREAESLIAKKIHPQTIIAGWREATKAAREALLSSAVDHGSDEVKFRQDLMNIAGTTLSSKLLTHHKDHFTKLAVEAVLRLKGSGNLEAIHIIKKLGGSLADSYLDEGFLLDKKIGVNQPKRIENAKILIANTGMDTDKIKIFGSRVRVDSTAKVAEIEHAEKEKMKEKVERILKHGINCFINRQLIYNYPEQLFGAAGVMAIEHADFAGVERLALVTGGEIASTFDHPELVKLGSCKLIEEVMIGEDKLIHFSGVALGEACTIVLRGATQQILDEAERSLHDALCVLAQTVKDSRTVYGGGCSEMLMAHAVTQLANRTPGKEAVAMESYAKALRMLPTIIADNAGYDSADLVAQLRAAHSEGNTTAGLDMREGTIGDMAILGITESFQVKRQVLLSAAEAAEVILRVDNIIKAAPRKRVPDHHPC
# B4: corneodesmosin; sequence looked up; chain KSIGTFSDPCKDPTRITSPNDPCLTGKGDSSGFSSYSGSSSSGSSISSARSSGGGSSGSSSGSSIAQGGSAGSFKPGTGYSQVSYSSGSGSSLQGASGSSQLGSSSSHSGNSGSHSGSSSSHSSSSSSFQFSSSSFQVGNGSALPTNDNSYRGILNPSQPGQSSSSSQTFGVSSSGQSVSSNQRPCSSDIPDSPCSGGPIVSHSGPYIPSSHSVSGGQRPVVVVVDQHGSGAPGVVQGPPCSNGGLPGKPCPPITSVDKSYGGYEVVGGSSDSYLVPGMTYSKGKIYPVGYFTKENPVKGSPGVPSFAAGPPISEGKYFSSNPIIPSQSAASSAIAFQPVGTGGVQLCGGGSTGSKGPCSPSSSRVPSSSSISSSSGLPYHPCGSASQSPCSPPGTGSFSSSSSSQSSGKIILQPCGSKSSSSGHPCMSVSSLTLTGGPDGSPHPDPSAGAKPCGSSSAGKIPCRSIRDILAQVKPLGPQLADPEVFLPQGELLNSP
# B5: DnaJ homolog DNAJC10; sequence looked up; chain DQDFYSLLGVSKTASSREIRQAFKKLALKLHPDKNPNNPNAHGDFLKINRAYEVLKDEDLRKKYDKYGEKGLEDNQGGQYESWNYYRYDFGIYDDDPEIITLERREFDAAVNSGELWFVNFYSPGCSHCHDLAPTWRDFAKEVDGLLRIGAVNCGDDRMLCRMKGVNSYPSLFIFRSGMAPVKYHGDRSKESLVSFAMQHVRSTVTELWTGNFVNSIQTAFAAGIGWLITFCSKGGDCLTSQTRLRLSGMLDGLVNVGWMDCATQDNLCKSLDITTSTTAYFPPGATLNNKEKNSILFLNSLDAKEIYLEVIHNLPDFELLSANTLEDRLAHHRWLLFFHFGKNENSNDPELKKLKTLLKNDHIQVGRFDCSSAPDICSNLYVFQPSLAVFKGQGTKEYEIHHGKKILYDILAFAKESVNSHVTTLGPQNFPANDKEPWLVDFFAPWCPPCRALLPELRRASNLLYGQLKFGTLDCTVHEGLCNMYNIQAYPTTVVFNQSNIHEYEGHHSAEQILEFIEDLMNPSVVSLTPTTFNELVTQRKHNEVWMVDFYSPWCHPCQVLMPEWKRMARTLTGLINVGSIDCQQYHSFCAQENVQRYPEIRFFPPKSNKAYHYHSYNGWNRDAYSLRIWGLGFLPQVSTDLTPQTFSEKVLQGKNHWVIDFYAPWCGPCQNFAPEFELLARMIKGKVKAGKVDCQAYAQTCQKAGIRAYPTVKFYFYERAKRNFQEEQINTRDAKAIAALISEKLETLRNQGKRNKDEL
Substance,tested on,test,system,conditions,how to read,quantity,value
GWTLNSAGYLLGPRRIDHLLMIKEMPIARGREEAPGA / YAVDNHRSFNDKHGFT-NH2 (C-amide),,,"mouse, DSS-induced colitis","ip, 0.75 µM",,colon length,5.5 cm and 6 cm and 6.5 cm and 6.1 cm and 5.6 cm
HSNVKELVF,Mamu-B*08301 MHC class I,peptide binding,"peptide, Chinese rhesus macaque",,,IC50,> 20 µM
insulin human,,measured: GLUD1 mRNA,"uninfected mouse, brain","i.p., dose not given",baseline: PBS,fold change,1.05
B1 (cytidine deaminase),,"peptide binding, SILAC pull-down",,concentration not given,baseline: non-acetylated over acetylated NIT1 peptide,log2 fold change,-0.361
Polymyxin B,Klebsiella pneumoniae,"broth microdilution, MH medium",carbapenem-resistant NCCP 15782,"16 h, 37 °C",,MIC,2 µM
mitragynine,,substrate,human liver S9,"10 min, 2",,Vmax,0.0992 nmol/min/mg protein
B2 (clathrin light chain A),,"peptide binding, SILAC pull-down",,concentration not given,baseline: non-acetylated over acetylated NIT1 peptide,log2 fold change,2.61
QLYNKPLCDV,HPV16 E6-specific T-cell line,ELISA,"peptide, supernatant","concentration not given, 24 h, together with: peptide-pulsed autologous B cells",,IFN-γ release,653 pg/mL
lead,glioblastoma,CCK-8,,"1 µM, 24 h, unit not given",baseline: untreated control,viability,1.01
pertussis toxin,,"immunostaining, measured: p-PKC","humanized UT (+/h+) mice, SAH model, middle cerebral artery",dose not given,,phospho-PKC level,21.1 MFI and 15.1 MFI and 16.7 MFI
BIRC3,,"peptide binding, SILAC pull-down",,concentration not given,baseline: non-acetylated over acetylated NIT1 peptide,log2 fold change,5.12
cisplatin,MDA-MB-231,,,,,IC50,7.5 ± 2 µM
KGCRCLGEG,Mamu-B*08301 MHC class I,peptide binding,"peptide, Chinese rhesus macaque",,,IC50,> 20 µM
PKYVKQNTLKLAT,stimulated healthy donor PBMCs,"combinatorial multi-epitope tetramer staining, measured: DRB1*01:01 tetramer",peptide,concentration not given,baseline: CD4 T cells,antigen-specific CD4 T cells,1.58%
B3 (CCT2),,"peptide binding, SILAC pull-down",,concentration not given,baseline: non-acetylated over acetylated NIT1 peptide,log2 fold change,1.07
colistin,Aspergillus fumigatus,,"pkcA G579R, solid minimal medium","20 µM, 4 days, 37 °C",baseline: untreated,radial growth ratio,0.936 and 0.9 and 0.947
GWTLNSAGYLLGPHAVDNHRSFNDKHGFT-NH2 (C-amide),,"RT-qPCR, measured: Tgfb1","peptide, mouse, DSS-induced colitis, colon","ip, 3 µM, 3% DSS, unit not given",baseline: Gapdh,mRNA level,1.8 and 1.48 and 2.47 and 1.79 and 2.06
nonaarginine,PorA peptide pore,"peptide binding, planar bilayer single-channel recording",,"0.5 µM, pH 7.4, +40 mV, trans side, 150 mM KCl",,kon,3e+07 ± 3e+06 M⁻¹ s⁻¹
aspterric acid,,root length,Arabidopsis thaliana Col-0 seeds,"25 µg/mL, seed germination",baseline: water control,inhibition,99.2%
oseltamivir carboxylate,Influenza A virus H1N1,"cytopathic effect, MTS",MDCK,,,EC50,0.2 µM
hexaarginine,PorA peptide pore,"peptide binding, planar bilayer single-channel recording",,"0.5 µM, pH 7.4, -15 mV, cis side, 150 mM KCl",,koff,2500 ± 250 s⁻¹
B4 (corneodesmosin),,"peptide binding, SILAC pull-down",,concentration not given,baseline: non-acetylated over acetylated NIT1 peptide,log2 fold change,0.172
QQYNKPLCDL,HPV16 E6-specific T-cell line,ELISA,"peptide, supernatant","concentration not given, 24 h, together with: peptide-pulsed autologous B cells",,IFN-γ release,338 pg/mL
PTVEELYR (API5),,"peptide binding, SILAC pull-down",,concentration not given,baseline: non-acetylated over acetylated NIT1 peptide,log2 fold change,0.271
CIAQDNCTG,Mamu-A1*02601 MHC class I,peptide binding,"peptide, Chinese rhesus macaque",,,IC50,> 20 µM
B5 (DnaJ homolog DNAJC10),,"peptide binding, SILAC pull-down",,concentration not given,baseline: non-acetylated over acetylated NIT1 peptide,log2 fold change,-0.488
RTLEDLLMGT,ASPC1 (HLA-A2− HPV−),111In release,peptide,"concentration not given, 16 h, E:T 25:1, IVS 5, together with: peptide-generated T-cell line",,specific lysis,0.5% and 1.1%
BUB3,,"peptide binding, SILAC pull-down",,concentration not given,baseline: non-acetylated over acetylated NIT1 peptide,log2 fold change,-1.63
(−)-antroquinonol A,Hep3B,"cytotoxicity, MTS",,72 h,,IC50,8 ± 1.2 µM

# A few entries again:
Substance,tested on,test,system,conditions,how to read,quantity,value
colistin,Aspergillus fumigatus,,"pkcA G579R, solid minimal medium","20 µM, 4 days, 37 °C",baseline: untreated,radial growth ratio,0.936 and 0.9 and 0.947
GWTLNSAGYLLGPHAVDNHRSFNDKHGFT-NH2 (C-amide),,"RT-qPCR, measured: Tgfb1","peptide, mouse, DSS-induced colitis, colon","ip, 3 µM, 3% DSS, unit not given",baseline: Gapdh,mRNA level,1.8 and 1.48 and 2.47 and 1.79 and 2.06
